Measurements collected from several papers.
A part holds a random share of what one study measured.
Sequence of UniProt P00519 (whole entry, unmodified, looked up): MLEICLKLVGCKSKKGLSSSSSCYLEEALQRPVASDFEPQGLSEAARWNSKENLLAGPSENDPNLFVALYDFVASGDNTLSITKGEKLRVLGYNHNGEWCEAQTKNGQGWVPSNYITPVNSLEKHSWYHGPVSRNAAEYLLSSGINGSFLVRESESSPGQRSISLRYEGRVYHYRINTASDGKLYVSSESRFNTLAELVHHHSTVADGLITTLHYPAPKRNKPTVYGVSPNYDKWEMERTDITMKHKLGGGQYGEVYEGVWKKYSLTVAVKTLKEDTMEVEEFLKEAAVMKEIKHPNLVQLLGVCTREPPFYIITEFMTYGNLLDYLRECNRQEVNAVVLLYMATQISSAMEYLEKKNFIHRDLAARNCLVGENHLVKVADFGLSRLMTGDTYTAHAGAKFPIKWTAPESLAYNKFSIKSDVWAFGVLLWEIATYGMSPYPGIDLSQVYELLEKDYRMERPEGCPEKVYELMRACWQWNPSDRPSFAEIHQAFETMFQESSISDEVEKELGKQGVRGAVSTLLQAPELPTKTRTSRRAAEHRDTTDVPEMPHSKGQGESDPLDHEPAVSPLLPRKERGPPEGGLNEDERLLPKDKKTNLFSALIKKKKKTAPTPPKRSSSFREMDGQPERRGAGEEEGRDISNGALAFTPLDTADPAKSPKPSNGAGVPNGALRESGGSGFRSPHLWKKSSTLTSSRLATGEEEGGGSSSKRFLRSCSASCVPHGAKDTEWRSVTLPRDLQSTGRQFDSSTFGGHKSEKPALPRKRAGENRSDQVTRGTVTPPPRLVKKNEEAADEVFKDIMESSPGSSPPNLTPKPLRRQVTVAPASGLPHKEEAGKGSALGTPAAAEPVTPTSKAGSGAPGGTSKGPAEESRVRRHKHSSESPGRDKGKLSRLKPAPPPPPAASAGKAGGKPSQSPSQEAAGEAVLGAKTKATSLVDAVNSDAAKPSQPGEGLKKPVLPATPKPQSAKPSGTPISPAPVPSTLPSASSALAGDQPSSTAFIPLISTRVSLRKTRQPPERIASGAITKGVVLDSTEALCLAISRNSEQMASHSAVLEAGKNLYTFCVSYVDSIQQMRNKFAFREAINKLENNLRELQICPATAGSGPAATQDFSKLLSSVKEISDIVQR
Sequence of UniProt P22612 (whole entry, looked up): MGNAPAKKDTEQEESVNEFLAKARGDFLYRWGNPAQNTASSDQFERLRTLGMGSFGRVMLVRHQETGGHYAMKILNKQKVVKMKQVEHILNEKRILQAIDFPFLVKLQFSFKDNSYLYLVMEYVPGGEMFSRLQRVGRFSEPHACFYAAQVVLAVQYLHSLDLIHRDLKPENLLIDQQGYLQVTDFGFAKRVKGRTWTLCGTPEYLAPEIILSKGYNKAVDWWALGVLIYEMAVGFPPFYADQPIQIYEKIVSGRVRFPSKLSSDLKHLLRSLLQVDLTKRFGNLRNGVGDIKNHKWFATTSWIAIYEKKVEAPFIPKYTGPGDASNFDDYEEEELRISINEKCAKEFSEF
Sequence of UniProt P51451 (whole entry, looked up): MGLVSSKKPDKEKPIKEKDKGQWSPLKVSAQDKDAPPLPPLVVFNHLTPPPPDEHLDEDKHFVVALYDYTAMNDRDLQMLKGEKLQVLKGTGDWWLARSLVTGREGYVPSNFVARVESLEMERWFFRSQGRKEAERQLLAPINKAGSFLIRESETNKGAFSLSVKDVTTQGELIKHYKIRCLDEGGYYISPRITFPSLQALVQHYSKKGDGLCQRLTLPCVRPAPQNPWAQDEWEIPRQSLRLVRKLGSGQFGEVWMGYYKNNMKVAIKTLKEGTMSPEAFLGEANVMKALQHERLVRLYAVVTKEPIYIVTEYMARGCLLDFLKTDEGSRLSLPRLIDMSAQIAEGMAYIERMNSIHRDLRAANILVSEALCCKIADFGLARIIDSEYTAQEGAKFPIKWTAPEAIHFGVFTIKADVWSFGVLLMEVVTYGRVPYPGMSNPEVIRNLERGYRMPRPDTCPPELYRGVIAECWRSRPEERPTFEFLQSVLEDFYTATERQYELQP
Sequence of UniProt P06239 (whole entry, looked up): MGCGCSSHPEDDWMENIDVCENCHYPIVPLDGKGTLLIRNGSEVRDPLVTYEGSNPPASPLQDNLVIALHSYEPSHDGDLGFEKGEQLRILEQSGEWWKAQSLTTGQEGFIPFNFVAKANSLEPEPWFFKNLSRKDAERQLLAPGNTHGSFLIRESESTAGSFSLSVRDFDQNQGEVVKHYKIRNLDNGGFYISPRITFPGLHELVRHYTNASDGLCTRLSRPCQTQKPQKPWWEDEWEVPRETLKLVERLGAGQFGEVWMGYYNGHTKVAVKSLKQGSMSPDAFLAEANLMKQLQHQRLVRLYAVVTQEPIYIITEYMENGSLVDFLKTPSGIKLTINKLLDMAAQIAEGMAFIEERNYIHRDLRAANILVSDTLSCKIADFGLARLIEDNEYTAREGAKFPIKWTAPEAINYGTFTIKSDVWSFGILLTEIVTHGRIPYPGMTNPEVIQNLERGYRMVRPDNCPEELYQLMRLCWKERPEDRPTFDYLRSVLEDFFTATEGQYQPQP
Sequence of UniProt P52564 (whole entry, looked up): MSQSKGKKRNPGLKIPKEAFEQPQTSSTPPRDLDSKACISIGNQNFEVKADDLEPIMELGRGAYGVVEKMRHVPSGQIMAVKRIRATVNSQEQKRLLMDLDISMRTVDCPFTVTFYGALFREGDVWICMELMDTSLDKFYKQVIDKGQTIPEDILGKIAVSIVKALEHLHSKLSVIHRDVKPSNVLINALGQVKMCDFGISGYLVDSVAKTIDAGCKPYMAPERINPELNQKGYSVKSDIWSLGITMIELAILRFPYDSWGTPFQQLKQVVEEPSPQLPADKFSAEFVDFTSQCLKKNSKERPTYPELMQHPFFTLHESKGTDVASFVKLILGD
Sequence of UniProt P06493 (whole entry, looked up): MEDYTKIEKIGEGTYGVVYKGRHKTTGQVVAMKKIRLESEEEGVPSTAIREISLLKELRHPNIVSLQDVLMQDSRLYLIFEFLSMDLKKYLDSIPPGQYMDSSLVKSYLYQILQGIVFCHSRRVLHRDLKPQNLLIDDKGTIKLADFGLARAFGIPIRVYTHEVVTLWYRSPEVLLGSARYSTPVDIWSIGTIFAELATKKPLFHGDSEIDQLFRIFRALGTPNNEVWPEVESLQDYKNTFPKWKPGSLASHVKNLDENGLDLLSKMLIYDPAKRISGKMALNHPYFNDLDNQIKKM
Sequence of UniProt Q8WU08 (whole entry, looked up): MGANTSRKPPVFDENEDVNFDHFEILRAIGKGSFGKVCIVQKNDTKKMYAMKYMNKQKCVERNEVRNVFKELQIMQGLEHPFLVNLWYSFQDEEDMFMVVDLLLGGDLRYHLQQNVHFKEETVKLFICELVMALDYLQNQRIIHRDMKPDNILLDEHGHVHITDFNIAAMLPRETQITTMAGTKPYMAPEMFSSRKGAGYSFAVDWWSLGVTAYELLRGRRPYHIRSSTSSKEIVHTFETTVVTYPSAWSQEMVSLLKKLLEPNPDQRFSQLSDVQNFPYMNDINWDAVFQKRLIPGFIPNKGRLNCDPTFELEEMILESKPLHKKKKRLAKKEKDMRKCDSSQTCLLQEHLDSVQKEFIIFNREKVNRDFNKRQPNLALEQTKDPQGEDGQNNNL
Sequence of UniProt O75716 (whole entry, looked up): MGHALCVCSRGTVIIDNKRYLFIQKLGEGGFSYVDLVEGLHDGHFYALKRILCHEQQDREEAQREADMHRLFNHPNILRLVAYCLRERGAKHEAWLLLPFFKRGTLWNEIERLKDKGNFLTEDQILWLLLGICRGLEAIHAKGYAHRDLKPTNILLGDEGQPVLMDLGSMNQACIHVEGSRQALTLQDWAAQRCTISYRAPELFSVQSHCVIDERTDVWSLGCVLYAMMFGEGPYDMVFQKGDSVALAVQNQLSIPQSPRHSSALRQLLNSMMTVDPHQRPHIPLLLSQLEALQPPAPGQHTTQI
Sequence of UniProt Q9H2X6 (whole entry, looked up): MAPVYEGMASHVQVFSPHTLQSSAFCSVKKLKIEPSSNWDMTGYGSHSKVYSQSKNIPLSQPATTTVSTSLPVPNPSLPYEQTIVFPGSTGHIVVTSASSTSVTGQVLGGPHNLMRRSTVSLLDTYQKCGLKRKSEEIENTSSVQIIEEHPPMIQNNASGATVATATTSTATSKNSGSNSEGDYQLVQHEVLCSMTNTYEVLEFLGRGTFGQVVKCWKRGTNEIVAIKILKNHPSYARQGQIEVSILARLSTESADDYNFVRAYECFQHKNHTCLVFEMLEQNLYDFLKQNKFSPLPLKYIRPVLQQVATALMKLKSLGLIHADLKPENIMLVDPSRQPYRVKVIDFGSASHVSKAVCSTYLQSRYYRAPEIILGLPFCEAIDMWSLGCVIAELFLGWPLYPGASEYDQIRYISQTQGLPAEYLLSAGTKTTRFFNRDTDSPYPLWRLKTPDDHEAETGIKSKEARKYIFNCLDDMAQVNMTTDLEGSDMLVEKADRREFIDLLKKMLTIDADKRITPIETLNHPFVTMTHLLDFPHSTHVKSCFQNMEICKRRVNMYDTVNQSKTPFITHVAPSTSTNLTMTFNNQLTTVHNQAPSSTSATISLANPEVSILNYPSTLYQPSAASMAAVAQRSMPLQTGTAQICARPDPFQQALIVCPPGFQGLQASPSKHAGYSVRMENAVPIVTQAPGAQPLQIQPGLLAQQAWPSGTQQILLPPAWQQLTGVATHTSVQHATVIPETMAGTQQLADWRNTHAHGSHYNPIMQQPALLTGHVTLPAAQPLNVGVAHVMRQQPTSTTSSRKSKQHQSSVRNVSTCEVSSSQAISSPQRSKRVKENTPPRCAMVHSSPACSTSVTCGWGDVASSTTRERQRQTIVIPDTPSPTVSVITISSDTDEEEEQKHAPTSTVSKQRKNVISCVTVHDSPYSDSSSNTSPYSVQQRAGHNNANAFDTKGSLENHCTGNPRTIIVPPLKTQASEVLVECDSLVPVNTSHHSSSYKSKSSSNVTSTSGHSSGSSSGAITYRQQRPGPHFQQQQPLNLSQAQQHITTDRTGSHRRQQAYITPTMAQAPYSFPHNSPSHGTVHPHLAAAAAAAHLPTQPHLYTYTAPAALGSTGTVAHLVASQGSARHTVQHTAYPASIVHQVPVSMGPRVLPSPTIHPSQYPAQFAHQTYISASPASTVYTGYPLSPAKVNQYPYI

Study 1
SMILES: c1ccc(N2CCN(Cc3nc4ccccc4[nH]3)CC2)nc1
Technique: competition with immobilised ligand
Concentration: 1 µM
Quantity: remaining binding
Non-receptor tyrosine-protein kinase TNK1 (TNK1, Homo sapiens, UniProt Q13470); binding: 59%
LIM domain kinase 2 (LIMK2, Homo sapiens, UniProt P53671); binding: 100%
Protein kinase C theta type (PRKCQ, Homo sapiens, UniProt Q04759); cell-free assay: 98%
Ribosomal protein S6 kinase alpha-4, N-terminal kinase domain (RPS6KA4, Homo sapiens, UniProt O75676); binding: 100%
Tyrosine-protein kinase ABL1, non-phosphorylated (ABL1, Homo sapiens, UniProt P00519, F317I); binding: 100%
Dual specificity mitogen-activated protein kinase kinase 6 (MAP2K6, Homo sapiens, UniProt P52564); binding: 100%
Calcium/calmodulin-dependent protein kinase type 1D (CAMK1D, Homo sapiens, UniProt Q8IU85); cell-free assay: 96%
Insulin receptor (INSR, Homo sapiens, UniProt P06213); cell-free assay: 100%
Serine/threonine-protein kinase 32A (STK32A, Homo sapiens, UniProt Q8WU08); binding: 100%
Cyclin-dependent kinase 3 (CDK3, Homo sapiens, UniProt Q00526); binding: 100%
Serine/threonine-protein kinase Chk1 (CHEK1, Homo sapiens, UniProt O14757); binding: 100%
Receptor-type tyrosine-protein kinase FLT3 (FLT3, Homo sapiens, UniProt P36888, N841I); binding: 100%
Tyrosine-protein kinase Lck (LCK, Homo sapiens, UniProt P06239); binding: 100%
Fibroblast growth factor receptor 3 (FGFR3, Homo sapiens, UniProt P22607); cell-free assay: 96%
Tyrosine-protein kinase ABL1, phosphorylated (ABL1, Homo sapiens, UniProt P00519); binding: 100%
Cyclin-dependent kinase 7 (CDK7, Homo sapiens, UniProt P50613); binding: 48%
Serine/threonine-protein kinase tousled-like 2 (TLK2, Homo sapiens, UniProt Q86UE8); cell-free assay: 100%

Study 2
Sample: 1,9-decadiene/PBS
pH: 7.4
Quantity: logD
CC(C)C[C@@H]1NC(=O)[C@H](C(C)C)NC(=O)[C@H](C)NC(=O)[C@H](CCC(=O)N2CCCC2)NC(=O)[C@@H](CCC(=O)N2CCCC2)NC(=O)[C@H](CC(C)C)NC(=O)[C@@H](CC(C)C)NC1=O: -2.47
CC(C)C[C@@H]1NC(=O)[C@H](C)NC(=O)[C@@H](CC(C)C)NC(=O)[C@@H](CC(C)C)NC(=O)[C@@H](CCC(=O)N2CCCC2)NC(=O)[C@H](CC(C)C)NC(=O)[C@@H](CC(C)C)NC1=O: -0.0939
CC(C)C[C@@H]1NC(=O)[C@@H](C)NC(=O)[C@H](C)NC(=O)[C@@H](CC(C)C)NC(=O)[C@H](C(C)C)NC(=O)[C@H](CC(C)C)NC(=O)[C@@H](CC(C)C)NC1=O: -0.745
CC(C)C[C@@H]1NC(=O)[C@H](C(C)C)NC(=O)[C@H](CCC(=O)N2CCCC2)NC(=O)[C@H](CCC(=O)N2CCCC2)NC(=O)[C@@H](CCC(=O)N2CCCC2)NC(=O)[C@H](CC(C)C)NC(=O)[C@@H](CC(C)C)NC1=O: -2.28
CC(C)C[C@@H]1NC(=O)[C@H](CC(C)C)NC(=O)[C@@H](CC(C)C)NC(=O)[C@H](CC(C)C)NC(=O)[C@H](C(C)C)NC(=O)[C@H](C)NC(=O)[C@H](C)NC1=O: 0.0814
CC(C)C[C@@H]1NC(=O)[C@H](CC(C)C)NC(=O)[C@@H](C(C)C)NC(=O)[C@H](C(C)C)NC(=O)[C@@H](Cc2cscn2)NC(=O)[C@H](Cc2cscn2)NC(=O)[C@H](CCC(=O)N2CCCC2)NC1=O: -2.28
CC(C)C[C@@H]1NC(=O)[C@H](CC(C)C)NC(=O)[C@@H](CC(C)C)NC(=O)[C@@H](C(C)C)NC(=O)[C@H](C(C)C)NC(=O)[C@H](CC(C)C)NC(=O)[C@@H](CC(C)C)NC1=O: 2.75
CC(C)C[C@@H]1NC(=O)[C@H](C(C)C)NC(=O)[C@H](CCC(=O)N2CCCC2)NC(=O)[C@H](CC(C)C)NC(=O)[C@@H](CCC(=O)N2CCCC2)NC(=O)[C@H](CC(C)C)NC(=O)[C@@H](CC(C)C)NC1=O: -0.827

Study 3
SMILES: O=C(Nc1ccc(Cl)cc1)c1ccccc1NCc1ccncc1
Observed: enzyme activity
Mode: inhibitor
Concentration: 0.5 µM
Baseline: control
Quantity: remaining activity
Cyclin-dependent kinase 4, with cyclin D3 (CDK4, Homo sapiens, UniProt P11802): 94.2%
Ephrin type-B receptor 1 (EPHB1, Homo sapiens, UniProt P54762): 90.2%
Cyclin-dependent kinase 1, with cyclin B (CDK1, Homo sapiens, UniProt P06493): 96.3%
Cyclin-dependent kinase 6, with cyclin D3 (CDK6, Homo sapiens, UniProt Q00534): 86.5%
Tyrosine-protein kinase receptor UFO (AXL, Homo sapiens, UniProt P30530): 98.1%
Ephrin type-B receptor 4 (EPHB4, Homo sapiens, UniProt P54760): 89.6%
Testis-specific serine/threonine-protein kinase 2 (TSSK2, Homo sapiens, UniProt Q96PF2): 86.3%
Homeodomain-interacting protein kinase 2 (HIPK2, Homo sapiens, UniProt Q9H2X6): 93%
Serine/threonine-protein kinase 17A (STK17A, Homo sapiens, UniProt Q9UEE5): 94.7%
Mitogen-activated protein kinase kinase kinase kinase 4 (MAP4K4, Homo sapiens, UniProt O95819): 88.7%
Ribosomal protein S6 kinase alpha-6 (RPS6KA6, Homo sapiens, UniProt Q9UK32): 104%
Serine/threonine-protein kinase 16 (STK16, Homo sapiens, UniProt O75716): 94.1%
Tyrosine-protein kinase Srms (SRMS, Homo sapiens, UniProt Q9H3Y6): 97.9%
Calcium/calmodulin-dependent protein kinase type II subunit beta (CAMK2B, Homo sapiens, UniProt Q13554): 93.4%
Tyrosine-protein kinase Blk (BLK, Homo sapiens, UniProt P51451): 102%
Ribosomal protein S6 kinase alpha-5 (RPS6KA5, Homo sapiens, UniProt O75582): 92.5%
cAMP-dependent protein kinase catalytic subunit gamma (PRKACG, Homo sapiens, UniProt P22612): 87.4%
Phosphorylase b kinase gamma catalytic chain, skeletal muscle/heart isoform (PHKG1, Homo sapiens, UniProt Q16816): 94.2%
Homeodomain-interacting protein kinase 4 (HIPK4, Homo sapiens, UniProt Q8NE63): 103%
Ephrin type-A receptor 4 (EPHA4, Homo sapiens, UniProt P54764): 96.5%
Serine/threonine-protein kinase WNK3 (WNK3, Homo sapiens, UniProt Q9BYP7): 92.9%
3-phosphoinositide-dependent protein kinase 1 (PDPK1, Homo sapiens, UniProt O15530): 95.3%
MAP kinase-activated protein kinase 3 (MAPKAPK3, Homo sapiens, UniProt Q16644): 91.4%

Study 4
Host: human
Sample: microsomes or S9
Concentration: 2 µM
Time: 0.5 h
Quantity: remaining compound
CC(C)CN1C(=O)CCC[C@]12CN(Cc1ccnc(N3CCCC3)n1)C[C@H]2c1ccccc1: 0.0326%
COc1ccc2c(c1)cc(C(=O)Nc1c(C)cccc1C)n2C: 39.3%
Fc1ccc2nc(-c3csc(-c4ccco4)n3)[nH]c2c1: 0.377%
CCCc1nc(-c2ccc3ccccc3c2)cc2c1sc1ccccc12: 83.6%
CCOc1ccc2[nH]c3c(=O)n(CCN(C(C)C)C(C)C)cnc3c2c1: 5.29%
Nc1c(-c2nc(-c3cccc(Br)c3)cs2)nnn1-c1ccc(F)cc1F: 36.4%
COc1cc(/C=C/C(=O)N2CCC=CC2=O)cc(OC)c1OC: 28.3%
Oc1cc(Nc2cccc(Br)c2)nc(O)n1: 76.5%
Cc1cc(NCc2cc(-c3cnn(C)c3C)no2)c(Cl)cc1F: 19.3%
COc1nn(C)c(=O)n1-c1cccc(Cl)c1Cl: 15.9%
O=S1(=O)c2cccc3cccc(c23)N1CCc1ccccc1: 83.7%
